Results gathered from unrelated publications.
A part holds a random share of what one study measured. Positions count from the first letter of the parent shown.

Block 1
Target: ABI1, truncated, D143A, DHFR fusion (Arabidopsis thaliana)
Method: DHFR PCA, deep sequencing
Medium: yeast
Setting: methotrexate growth selection, single substitutions
With: (+)-ABA 4.8 µM
Relative to: wild-type fitted maximum
Direction: higher = stronger binding
Parent: PYL1, truncated, DHFR fusion (Arabidopsis thaliana); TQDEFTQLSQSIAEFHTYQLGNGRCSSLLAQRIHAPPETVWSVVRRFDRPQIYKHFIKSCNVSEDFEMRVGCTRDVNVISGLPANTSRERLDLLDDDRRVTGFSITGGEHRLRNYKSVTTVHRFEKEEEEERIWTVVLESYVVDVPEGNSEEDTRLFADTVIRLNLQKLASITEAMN; partner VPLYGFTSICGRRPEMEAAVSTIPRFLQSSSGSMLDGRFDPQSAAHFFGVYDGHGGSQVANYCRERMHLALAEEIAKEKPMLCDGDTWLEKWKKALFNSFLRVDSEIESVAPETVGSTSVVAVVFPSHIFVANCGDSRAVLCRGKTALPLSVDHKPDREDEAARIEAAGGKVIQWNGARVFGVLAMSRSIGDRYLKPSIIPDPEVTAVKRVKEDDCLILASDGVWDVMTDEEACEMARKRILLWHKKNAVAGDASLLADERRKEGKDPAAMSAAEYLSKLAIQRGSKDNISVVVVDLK
| Change | relative binding score [%] |
| --- | --- |
| T106V | 97.1 |
| I79K | 47.5 |
| S63G | 78.5 |
| E151F | 60 |
| Q31D | -13.4 |
| V43L | 61.1 |
| G102Y | 4.22 |
| S11I | 62.9 |
| G81L | -2.92 |
| N114K | 6.6 |
| G81C | 2.02 |
| W134D | 54.7 |
| S117Y | 2.48 |
| L8C | 51.5 |
| D3F | 60.1 |
| F66L | 39.8 |

Block 2
Target: CEBPD, bZIP domain (human)
Method: DHFR protein complementation
Medium: yeast
Setting: single substitutions, most at no-binding floor
Relative to: wild-type JUN-FOS pair
Direction: higher = stronger binding
Parent: JUN, bZIP domain (human); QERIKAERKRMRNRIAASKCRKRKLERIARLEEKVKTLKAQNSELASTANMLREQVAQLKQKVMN; partner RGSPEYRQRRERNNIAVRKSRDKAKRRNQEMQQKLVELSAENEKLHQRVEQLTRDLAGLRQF
| Change | binding fitness |
| --- | --- |
| V35G | -1.5 natural log |
| A46V | -1.36 natural log |
| T48P | -1.47 natural log |
| Q55L | -1.46 natural log |
| T48D | -1.48 natural log |
| I28Y | -1.27 natural log |
| N42V | -1.35 natural log |
| L45M | -1.43 natural log |
| E32L | -1.46 natural log |
| A57P | -1.52 natural log |
| E54V | -1.46 natural log |
| A40K | -1.1 natural log |
| A49C | -1.29 natural log |
| E33N | -1.46 natural log |
| L31S | -1.49 natural log |
| L45T | -1.51 natural log |
| L52K | -1.57 natural log |
| Q55D | -1.52 natural log |

Block 3
Target: Interferon regulatory factor 7, full length, phosphomimetic (IRF7, Homo sapiens, UniProt Q92985, residues 1-503, S101K/S471D/S472D/S475D/S476D/S477D/S483D/S484D/S487D)
Method: protein-binding microarray
Form: double-stranded DNA, one strand shown
Medium: in vitro
Tested at: 250 nM
Setting: 60-bp whole probe
With: salmon DNA 0.4 mg/ml
Relative to: random background probes
Direction: higher = stronger binding
All sequences stand within: GCCTAGCAC … GTCTTGATTCGCTTGACGCTGCTG
Construct (chain): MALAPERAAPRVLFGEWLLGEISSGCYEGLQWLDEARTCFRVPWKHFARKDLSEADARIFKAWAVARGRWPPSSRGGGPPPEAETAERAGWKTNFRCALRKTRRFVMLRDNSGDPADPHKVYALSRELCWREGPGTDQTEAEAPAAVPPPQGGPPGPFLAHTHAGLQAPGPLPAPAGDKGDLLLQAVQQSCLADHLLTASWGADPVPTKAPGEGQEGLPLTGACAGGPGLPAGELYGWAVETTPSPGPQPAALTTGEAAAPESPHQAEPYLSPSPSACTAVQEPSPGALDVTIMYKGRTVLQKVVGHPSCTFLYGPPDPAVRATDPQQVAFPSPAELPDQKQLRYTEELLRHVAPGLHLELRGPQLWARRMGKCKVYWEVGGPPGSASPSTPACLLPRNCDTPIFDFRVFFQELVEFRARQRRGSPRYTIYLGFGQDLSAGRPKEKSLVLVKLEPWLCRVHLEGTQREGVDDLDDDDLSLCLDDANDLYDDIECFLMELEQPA
| Strand | log fluorescence |
| --- | --- |
| TCAAACTTGTGTTTGTCACTGTGCTAG | -0.489 z-score |
| TCACTTTCCTTACTTCCCACTGTGCTA | 2.88 z-score |
| TCATCTTTAACATATTCTACTGTGCTA | 0.596 z-score |
| TCAATTTTCGGGTAGATGACTGTGCTA | 1.26 z-score |
| TTAGGTTTCGGTACTGGGTTAGTGCTA | 6.21 z-score |
| GACGGACTGGACACTGGGTACGTGCTA | -0.658 z-score |
| GACGAACTGGGGTTTCGACACGTGCTA | 0.914 z-score |
| TTAGAACTGGGGTATCTATTAGTGCTA | -0.152 z-score |
| GACGATTTCAGTTTCGAGAGGTGCTAG | 3.19 z-score |
| CTAGGTATCGACTATCGGTTAGTGCTA | 0.609 z-score |
| TCAGGTATCGGTATCGGTTAGTGCTAG | 2.81 z-score |
| GACTATTTCGGGTATCGAGACGTGCTA | 1.3 z-score |
| GACGGTTCCGGTTTCGGAACGTGCTAG | 9.51 z-score |
| GACGAACTGGGGACTGGACACGTGCTA | -0.462 z-score |
| TGTCCTTTCTCCATGGGTATGTGCTAG | 1.83 z-score |
| TTAGGACTGCTTCTCCCTTAGTGCTAG | 0.5 z-score |
| GTCGGTTTCGGTCTCGGGACGTGCTAG | 9 z-score |

Block 4
Target: CCNB1, cyclin fold, Cln2 fusion (human)
Method: yeast growth competition, sequencing
Medium: yeast
Setting: weak parent motif
Relative to: not given
Direction: higher = stronger binding
Parent: CDC6 docking peptide (human); TLKGRRLVFDNQL
| Change | normalised enrichment score |
| --- | --- |
| TLKGRRLSFDNQL [V8S] | 0.8 |
| TLKGRRLYFDNQL [V8Y] | 0.646 |
| NLKGRRLVFDNQL [T1N] | -0.396 |
| TLKGRRFVFDNQL [L7F] | -0.0294 |
| TLKGRTLVFDNQL [R6T] | -0.00399 |
| TLKGRRLVFDNLL [Q12L] | 1.1 |
| TLKGRRDVFDNQL [L7D] | 0.0453 |
| TLKGRRLVFDNML [Q12M] | 0.374 |
| TLKGRPLVFDNQL [R6P] | -0.673 |
| TLKRRRLVFDNQL [G4R] | 0.463 |
| TLKGRRLVFDNNL [Q12N] | 0.139 |
| TLKGRRLTFDNQL [V8T] | 0.942 |
| TLKGRRLVFFNQL [D10F] | 0.284 |
| TPKGRRLVFDNQL [L2P] | 0.0859 |
| TLHGRRLVFDNQL [K3H] | -0.144 |
| TLKGRRLVDDNQL [F9D] | 0.436 |
| TLKGKRLVFDNQL [R5K] | -0.365 |
| TLKGRRLVFKNQL [D10K] | 0.233 |

Block 5
Target: Ras GTPase-activating protein-binding protein 1, RRM domain (G3BP1, Homo sapiens, UniProt Q13283)
UniProt Q13283, sequence (whole entry, looked up): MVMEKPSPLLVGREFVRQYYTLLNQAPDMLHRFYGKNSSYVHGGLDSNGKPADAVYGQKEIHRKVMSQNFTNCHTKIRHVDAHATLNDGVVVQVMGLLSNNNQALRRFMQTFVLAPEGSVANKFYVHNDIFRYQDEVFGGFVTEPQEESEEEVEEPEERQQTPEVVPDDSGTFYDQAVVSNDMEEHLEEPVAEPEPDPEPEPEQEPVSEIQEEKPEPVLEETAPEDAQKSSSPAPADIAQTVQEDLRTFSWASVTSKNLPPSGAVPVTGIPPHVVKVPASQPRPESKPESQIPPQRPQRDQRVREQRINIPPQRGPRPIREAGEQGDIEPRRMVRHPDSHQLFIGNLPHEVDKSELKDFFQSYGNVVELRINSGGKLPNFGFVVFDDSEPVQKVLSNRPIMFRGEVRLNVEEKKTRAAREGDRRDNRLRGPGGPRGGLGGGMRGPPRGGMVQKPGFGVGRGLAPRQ
Method: RNA Bind-n-Seq
Form: RNA
Medium: in vitro
Tested at: 1 µM
Setting: whole 134-nt RNA, ends assumed
With: 150 mM KCl
Relative to: input library
Direction: higher = stronger binding
All sequences stand within: GGGAGUUCUACAGUCCGACGAUC … UGGAAUUCUCGGGUGUCAAGG
| Strand | log2 enrichment |
| --- | --- |
| CACAGACACCACGCACCCACACAGACACAGAGGGAAGGGGUUGGGAUGGGGACAGGGUGCACAGCAGGGCGGGGUAGGACCCCAGCCCCU | -0.118 |
| CUGUGCUACACAUCGUAUGUACCGAAUCAAAUUUUUUUAAAUUUUUUUAAAUUUUUUUAAAAAAGUAUUAUGUUACGCCGUUCGGAUCUG | -0.229 |
| CAAGUCCUGUGCUACACAUCGUAUGUACCGAAUCGGGCCCGGGCCCGGGGCCCGGGAAAGUAUUAUGUUACGCCGUUCGGAUCUGCACUU | -0.853 |
| GGUGUUGCUGGAAGAAGCCAAGGAUUUGCUCUCUGACUGGCUGGAUUCUACACUUGGCUGUGAUGUCACUGACAAUUCCAUCUUCUCCAA | -0.117 |
| UGGGAGGUGGAUUUUGUUUAUUUUUUUAGCUCAUUUCCAGGGGUGGGAAUUUUUUUUUAAUAUGUGUCAUGGAUAAAGUUGUUUUUGAAA | 1.81 |
| AAGUCCUGUGCUACACAUCGUAUGUACCGAAUCGGGCCCCGGGCCCCGGGCCCCGGAAAGUAUUAUGUUACGCCGUUCGGAUCUGCACUU | -1.1 |
| UGGCCCUGGUGGCAUGCGGGGAGGAAGAGGUGGCCUCAUGGAUCGUGGUGGUCCCGGUGGAAUGUUCAGAGAUGGCCGUGGUGGAGACAG | 1.82 |
| CCUCAAGUCCUGUGCUACACAUCGUAUGUACCGAAUCGGGUGGUGGGGUGGGAAAGUAUUAUGUUACGCCGUUCGGAUCUGCACUUCCAG | 0.259 |
| GCAGGAAGUAAAAACAAAUGGAAAUGCUUCGGAUAGUGGCAGGGGUGGGGGUUGCUAAGGAAAGGGUGGGAUGGGAAAGGGUAAAGAGUU | 1.31 |

For quick reference, copied from above (block 5):
| Strand | log2 enrichment |
| --- | --- |
| GCAGGAAGUAAAAACAAAUGGAAAUGCUUCGGAUAGUGGCAGGGGUGGGGGUUGCUAAGGAAAGGGUGGGAUGGGAAAGGGUAAAGAGUU | 1.31 |
| GGUGUUGCUGGAAGAAGCCAAGGAUUUGCUCUCUGACUGGCUGGAUUCUACACUUGGCUGUGAUGUCACUGACAAUUCCAUCUUCUCCAA | -0.117 |
| CACAGACACCACGCACCCACACAGACACAGAGGGAAGGGGUUGGGAUGGGGACAGGGUGCACAGCAGGGCGGGGUAGGACCCCAGCCCCU | -0.118 |
| AAGUCCUGUGCUACACAUCGUAUGUACCGAAUCGGGCCCCGGGCCCCGGGCCCCGGAAAGUAUUAUGUUACGCCGUUCGGAUCUGCACUU | -1.1 |
| CCUCAAGUCCUGUGCUACACAUCGUAUGUACCGAAUCGGGUGGUGGGGUGGGAAAGUAUUAUGUUACGCCGUUCGGAUCUGCACUUCCAG | 0.259 |
| UGGCCCUGGUGGCAUGCGGGGAGGAAGAGGUGGCCUCAUGGAUCGUGGUGGUCCCGGUGGAAUGUUCAGAGAUGGCCGUGGUGGAGACAG | 1.82 |
| UGGGAGGUGGAUUUUGUUUAUUUUUUUAGCUCAUUUCCAGGGGUGGGAAUUUUUUUUUAAUAUGUGUCAUGGAUAAAGUUGUUUUUGAAA | 1.81 |
| CUGUGCUACACAUCGUAUGUACCGAAUCAAAUUUUUUUAAAUUUUUUUAAAUUUUUUUAAAAAAGUAUUAUGUUACGCCGUUCGGAUCUG | -0.229 |
